Measured values from different studies.
Every numbered part comes from another study and shows a few of its results, in no order. Positions count from the first letter of the parent shown.
Chain of UniProt Q00535 (whole entry, looked up): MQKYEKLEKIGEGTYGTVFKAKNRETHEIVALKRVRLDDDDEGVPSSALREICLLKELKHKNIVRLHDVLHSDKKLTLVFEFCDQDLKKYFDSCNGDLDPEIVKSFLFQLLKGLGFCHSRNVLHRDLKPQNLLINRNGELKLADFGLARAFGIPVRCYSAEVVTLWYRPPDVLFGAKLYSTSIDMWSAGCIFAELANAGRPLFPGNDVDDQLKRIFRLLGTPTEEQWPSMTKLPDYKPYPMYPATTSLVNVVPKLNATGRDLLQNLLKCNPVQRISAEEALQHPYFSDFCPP

Study 1
Target: CCNA2, cyclin fold, Cln2 fusion (human)
Technique: yeast growth competition, sequencing
Medium: yeast
Setting: strong parent motif
Reference: not given
Direction: higher = stronger binding
Starting sequence: viral docking peptide; YKVKRRLVFGADD; partner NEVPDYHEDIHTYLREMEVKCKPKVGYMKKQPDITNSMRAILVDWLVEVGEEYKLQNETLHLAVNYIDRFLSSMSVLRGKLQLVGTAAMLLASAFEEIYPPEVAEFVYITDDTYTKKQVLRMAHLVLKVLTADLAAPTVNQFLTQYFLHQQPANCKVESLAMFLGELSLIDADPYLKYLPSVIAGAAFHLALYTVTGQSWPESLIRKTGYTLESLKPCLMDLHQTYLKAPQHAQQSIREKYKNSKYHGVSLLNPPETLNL
`K2M` — result for “normalised enrichment score”: 6.31.
For `V8Q`, “normalised enrichment score” read 6.51.
`R6S` — result for “normalised enrichment score”: 5.34.
`A11Q`: “normalised enrichment score” 5.99.
`R6I` — result for “normalised enrichment score”: 4.34.
For `D12W`, “normalised enrichment score” read 6.1.
Under “normalised enrichment score”, `V8S` is recorded as 6.28.
For `F9T`, “normalised enrichment score” read 0.888.

Study 2
Target: UDP-N-acetylglucosamine--peptide N-acetylglucosaminyltransferase 110 kDa subunit (OGT, Homo sapiens, UniProt O15294)
Chain of UniProt O15294 (whole entry, looked up): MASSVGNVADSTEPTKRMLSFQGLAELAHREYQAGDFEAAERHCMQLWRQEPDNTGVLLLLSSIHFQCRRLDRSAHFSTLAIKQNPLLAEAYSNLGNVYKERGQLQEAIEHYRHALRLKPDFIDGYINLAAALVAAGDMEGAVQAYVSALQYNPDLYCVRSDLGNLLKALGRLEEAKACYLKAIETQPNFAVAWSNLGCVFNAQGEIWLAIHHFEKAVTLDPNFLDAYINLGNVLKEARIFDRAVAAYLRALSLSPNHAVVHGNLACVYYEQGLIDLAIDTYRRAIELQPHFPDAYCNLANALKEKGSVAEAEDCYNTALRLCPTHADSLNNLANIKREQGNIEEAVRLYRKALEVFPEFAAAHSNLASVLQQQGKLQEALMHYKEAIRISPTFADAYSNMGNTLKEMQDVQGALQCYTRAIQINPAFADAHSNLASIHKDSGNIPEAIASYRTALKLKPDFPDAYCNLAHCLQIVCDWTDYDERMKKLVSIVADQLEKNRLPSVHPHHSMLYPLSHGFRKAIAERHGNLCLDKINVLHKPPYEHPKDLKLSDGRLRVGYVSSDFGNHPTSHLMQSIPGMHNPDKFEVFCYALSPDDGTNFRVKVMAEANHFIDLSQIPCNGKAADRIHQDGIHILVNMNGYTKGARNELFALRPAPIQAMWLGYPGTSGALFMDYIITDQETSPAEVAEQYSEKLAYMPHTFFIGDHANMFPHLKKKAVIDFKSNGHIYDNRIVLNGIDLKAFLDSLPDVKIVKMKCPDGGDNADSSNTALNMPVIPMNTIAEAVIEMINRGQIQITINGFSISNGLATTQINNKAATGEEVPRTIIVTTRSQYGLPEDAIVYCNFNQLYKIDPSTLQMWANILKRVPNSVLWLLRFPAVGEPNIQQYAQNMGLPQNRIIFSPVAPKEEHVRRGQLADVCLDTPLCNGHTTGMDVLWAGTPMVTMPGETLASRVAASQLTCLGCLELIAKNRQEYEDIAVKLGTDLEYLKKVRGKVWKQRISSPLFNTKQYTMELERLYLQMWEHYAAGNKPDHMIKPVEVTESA
Observed: binding
Technique: phage display NGS
Form: peptide
Concentration: concentration not given
Reference: input library
Under “enrichment fold change”, `WAGWRGTDALHSHWD` is recorded as 3.48.
For `WTPHPAHDNKPHYR`, “enrichment fold change” read 2.7.
For `YYLPAYQIAPKYVQD`, “enrichment fold change” read 7.4.
For `YTTHKHHNTTNFVAV`, “enrichment fold change” read 5.84.
For `EPYIGPHHMHHYEHS`, “enrichment fold change” read 61.8.
For `QVFWPQYQINIPKLN`, “enrichment fold change” read 4.76.
`HTFREHYINHWTHSI`: “enrichment fold change” 10.1.
For `WPGHSHNNYAHHTGH`, “enrichment fold change” read 6.04.

Study 3
Target: tungstate, free oxyanion
Technique: microfluidic competitive inhibition
Medium: in vitro, cell-free expressed
Concentration: not given
Setting: derived from inhibition constants, unchanged parent 2230 nM
Direction: lower = stronger binding
Starting sequence: PafA, mature enzyme, eGFP fusion (Elizabethkingia meningoseptica, UniProt Q9KJX5); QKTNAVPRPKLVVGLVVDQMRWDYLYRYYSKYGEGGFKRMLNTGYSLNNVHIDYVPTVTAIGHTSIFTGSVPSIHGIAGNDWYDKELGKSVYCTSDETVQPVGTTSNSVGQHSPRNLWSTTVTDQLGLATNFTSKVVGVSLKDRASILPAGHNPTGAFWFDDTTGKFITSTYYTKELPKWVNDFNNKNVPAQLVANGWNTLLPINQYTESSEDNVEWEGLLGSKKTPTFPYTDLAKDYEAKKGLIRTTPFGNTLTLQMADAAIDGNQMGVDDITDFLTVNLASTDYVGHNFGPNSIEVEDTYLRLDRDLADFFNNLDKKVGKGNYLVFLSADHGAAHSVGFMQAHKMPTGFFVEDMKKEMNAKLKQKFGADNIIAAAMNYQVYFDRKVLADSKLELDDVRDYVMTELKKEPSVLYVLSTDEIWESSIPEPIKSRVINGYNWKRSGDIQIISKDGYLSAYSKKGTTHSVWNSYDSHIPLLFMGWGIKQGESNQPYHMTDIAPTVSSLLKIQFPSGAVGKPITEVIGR
Under “oxyanion analog dissociation constant”, `I447G` is recorded as 1.35 µM.
For `Y26G`, “oxyanion analog dissociation constant” read 1.51 µM.
`T68V`: “oxyanion analog dissociation constant” 1.28 µM.
`E410V`: “oxyanion analog dissociation constant” 2.32 µM.
`G36A`: “oxyanion analog dissociation constant” 2.41 µM.
For `R304V`, “oxyanion analog dissociation constant” read 1.89 µM.
Under “oxyanion analog dissociation constant”, `V388G` is recorded as 2.32 µM.
Under “oxyanion analog dissociation constant”, `L221G` is recorded as 623 nM.

Mixed results
For N/C(=N\[N+](=O)[O-])N/N=C\c1ccc(-c2cccc([N+](=O)[O-])c2)o1, the remaining activity was 96.5% (Cyclin-dependent kinase 5, with p25 (CDK5, Homo sapiens, UniProt Q00535); enzyme activity, inhibitor; 0.5 µM; reference: control).

A few entries again (study 3):
`E410V`: “oxyanion analog dissociation constant” 2.32 µM.
Under “oxyanion analog dissociation constant”, `V388G` is recorded as 2.32 µM.
`G36A`: “oxyanion analog dissociation constant” 2.41 µM.
Under “oxyanion analog dissociation constant”, `I447G` is recorded as 1.35 µM.
